Published values collected from several papers.
Every numbered part comes from another study and shows a few of its results, in no order. Positions count from the first letter of the parent shown.

Study 1 — method: RNA Bind-n-Seq; molecule type: RNA; matrix: in vitro; concentration: 365 nM; relative to: no-protein control; direction: higher = stronger binding
Target: RNA binding protein fox-1 homolog 2, RRM domain, GST-SBP tag (RBFOX2, Homo sapiens, UniProt O43251-10, residues 100-194)
Notes: natural RNA segment, single round, ends assumed
Target sequence (chain): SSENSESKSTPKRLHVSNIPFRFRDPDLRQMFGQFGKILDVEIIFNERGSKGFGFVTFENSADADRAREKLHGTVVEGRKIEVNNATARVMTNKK
| Oligonucleotide | RBNS enrichment (R) |
| --- | --- |
| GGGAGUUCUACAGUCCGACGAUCGGGUUGGGAGGGUCUUUUAUUUUUUUCCUCUGAAAUAAAGCAGUGCUGUUUUCAAAUGAAGCCGUGUGGAUAUUUCAGCGUGCUGCUCCCUGUUGUCUGGAAACAGUUGAUGGAAUUCUCGGGUGCCAA | 0.668 |
| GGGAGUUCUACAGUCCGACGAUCCCCAAAUGGCUGGGCAAGGGUGACCUUGAUUCACACACCACAGCCUCCCCUUGAGUGAUGGAAGGUGCCACUCACCUAGGCCAAAGCCCACAUCCUCUUGGGGACUCAGAUGGAAUUCUCGGGUGCCAA | 0.436 |
| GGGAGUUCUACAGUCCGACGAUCGACUGGGUAGCAGGUUCCUUCUGUUGUCCUGUGUGGUGUGUCUACUGUGAGGGUGGGCCCUGAGGAGACCUGUGGGCCACCUAUUGUCUAAUAAAGUGGGCAGUUGCCCCUGGAAUUCUCGGGUGCCAA | 0.246 |
| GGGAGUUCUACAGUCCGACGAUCUUUACAGUGGCAAAAAUAAUGACAUGUAGCAAAGAUUUUCAAACAAAAUAUUUUUUCCUUUUGUAAAUUUCUUGUGUUGUGUGAUCUUGAUUGCGGCUUUAUCAUUCCUUUGGAAUUCUCGGGUGCCAA | 0.519 |
| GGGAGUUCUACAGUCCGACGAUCUCCAUAUAGUAAAAUAACAUUUCUGCCCAGGAUAAUAGUCACAGUUUUCCAGGGAGGGAAUGAUAUAAUUUUCAUGACAAUGUCAUGUGCUGAUAGAAUUUCUCCAUUGAUGGAAUUCUCGGGUGCCAA | 0.403 |
| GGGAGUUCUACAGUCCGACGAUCAAGAAACCUGGCAUUUAAAUCAUAUUUUGUCUUUAGGUAAAAGCUUUGGUUUGUGUUCGUGUUUUGUUUGUUUCACUUGUUUCCCUCCCAGCCCCAAACCUUUUGUUCUCUGGAAUUCUCGGGUGCCAA | 0.37 |
| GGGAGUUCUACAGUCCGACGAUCCUGGAAGAUUUUUAACAAAGGGAAAAACCAACAGCAAUAAGUCAUUGGUGAGCAGCUAACUCGCUCAUUGAUGAGCAGCUAACUCUCACACACAUACACACACACACACAUGGAAUUCUCGGGUGCCAA | 0.7 |
| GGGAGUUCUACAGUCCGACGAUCGCCCGUUGCUGGCGAUGGGCCCAUGCCCCCUCUCCAGGCUCUCUAGAGGCAGGCAGGUCCUUGGAAUCCCCAGCCUGCAAGCAGAGGCUGGCCAGCUCCCCAGCUCAGCAUGGAAUUCUCGGGUGCCAA | 3.13 |
| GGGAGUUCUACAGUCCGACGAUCAGAUGGUAGUGGCAAUAGCAGCGAUAGUUGCGUCAGUGCUAACUGCUGCUGCUGCCCGUUCUGUUGGCGGCUGCUGGCCAAGUGUGCACACUUAGCCCUGGUUGAGGUGCUGGAAUUCUCGGGUGCCAA | 0.21 |
| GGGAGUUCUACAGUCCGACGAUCAAAAGCAAAGCUUCCUAAAAAGAUUUUUCUUGGCAGCUCCAGGUCUAUACAUUUAGGUAAUGAAUGGUAGUAGAACUAAUAGCUUUAACAGGAGAAUAGGGAAUGAGAAAUGGAAUUCUCGGGUGCCAA | 0.54 |
| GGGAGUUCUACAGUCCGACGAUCGCUCCUCCCUACAGGCACUGUCUGUCUUCACAGGGCUUGGUCUUUCUGCUGCCACUUGUGAAAACCGAAAAAAAACAAGACUACAUAGCACCGACUUUUUGAAAAUCAGAUGGAAUUCUCGGGUGCCAA | 0.648 |
| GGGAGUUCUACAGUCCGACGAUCCUUGCUAUAACCGGAGAGCUUCAAAACUGACGUAUGAUGCAGCAGGGACUUCAUCACUGAGUACUGUGACAGUAUGUGUCAUCUCUGGGCCAAAGGACAAGCCAUUGAUCUGGAAUUCUCGGGUGCCAA | 0.322 |

Study 2 — target: CCNA2, cyclin fold, Cln2 fusion (human); method: yeast growth competition, sequencing; matrix: yeast; notes: weak parent motif; relative to: not given; direction: higher = stronger binding
Starting sequence: EXO1 docking peptide (human); KPECGRVQRAIFQ
| Substitution | normalised enrichment score |
| --- | --- |
| KPECGRVQAAIFQ [R9A] | 0.239 |
| KAECGRVQRAIFQ [P2A] | 0.74 |
| KPECGRVQRAAFQ [I11A] | 0.204 |
| KPECGAVQRAIFQ [R6A] | 0.01 |
| KPACGRVQRAIFQ [E3A] | 0.891 |
| KPECGRVQRAIFA [Q13A] | 0.81 |

Study 3 — method: protein-binding microarray; molecule type: double-stranded DNA, one strand shown; matrix: in vitro; concentration: 940 nM top; notes: 60-bp whole probe; with: salmon DNA 0.4 mg/ml; relative to: random background probes; direction: higher = stronger binding; constant ends, left off below: GCCTAGCAC … GTCTTGATTCGCTTGACGCTGCTG
Target: Interferon regulatory factor 5, full length, phosphomimetic (IRF5, Homo sapiens, UniProt Q13568-2, residues 1-514, S451D/S453D/S456D/S462D)
| Oligonucleotide | fitted relative affinity |
| --- | --- |
| GACGATCTCGGTTTCGGGACGTGCTAG | 4.39 z-score |
| TTAGGACGGCTTCTCCTTTAGTGCTAG | -0.258 z-score |
| TTAGGAGTGGACTTTCGGTTAGTGCTA | 2.44 z-score |
| GACGATCTCAGTTTAGAGACGTGCTAG | 0.196 z-score |
| TTTGGTATCGGACTGGGTTAGTGCTAG | 6.75 z-score |
| GGGCATTTGGTTAGCGTATAGTGCTAG | -0.185 z-score |
| TTAGGTTTCCTTCGCCTTTAGTGCTAG | 1.96 z-score |
| TTGGCTTTCCTTTATGTCCTGTGCTAG | 0.0909 z-score |
| TTAGACTTCAGTTTCGATTAGTGCTAG | 8.47 z-score |
| GACGAACTGGGGTATCTAGACGTGCTA | -0.00206 z-score |
| AATTGTCTCTGTCCCTGTTTGTGCTAG | 1.94 z-score |
| GACGGACTGATTATCCTGACGTGCTAG | -0.563 z-score |
| TCAGATCTGCCGTCCCACACTGTGCTA | 0.0981 z-score |
| GACGGTTTCCTTAACCTGACGTGCTAG | 0.545 z-score |
| TTTGGTTTCCTTCTCCTTTAGTGCTAG | 3.87 z-score |
| GACGATATCGGGACTGGAGAGGTGCTA | 0.0609 z-score |
| TTAGGTTCCCATTTCCTTTAGTGCTAG | 0.725 z-score |
| TCAATTCTCTACTTGTGACTGTGCTAG | 0.986 z-score |
| GCAAACCCCATTCTCAGCCCGTGCTAG | 0.814 z-score |
| TCAAATGATTGGTTGAAACTGTGCTAG | -0.166 z-score |
| GGATCTTGCAGATGTCGCTGGGTGCTA | -0.549 z-score |
| GACGGTTTCCTTCTGCTGACGTGCTAG | 1.58 z-score |
| TTTGATTTCGGGACTGGATTAGTGCTA | 0.95 z-score |

Study 4 — method: RNA Bind-n-Seq; molecule type: RNA; matrix: in vitro; concentration: 100 nM; relative to: input RNA pool; direction: higher = stronger binding
Target: RING finger protein unkempt homolog, zinc fingers 1-6, SBP tag (UNK, Homo sapiens, UniProt Q9C0B0, residues 30-357)
UniProt Q9C0B0, sequence (30-357, looked up): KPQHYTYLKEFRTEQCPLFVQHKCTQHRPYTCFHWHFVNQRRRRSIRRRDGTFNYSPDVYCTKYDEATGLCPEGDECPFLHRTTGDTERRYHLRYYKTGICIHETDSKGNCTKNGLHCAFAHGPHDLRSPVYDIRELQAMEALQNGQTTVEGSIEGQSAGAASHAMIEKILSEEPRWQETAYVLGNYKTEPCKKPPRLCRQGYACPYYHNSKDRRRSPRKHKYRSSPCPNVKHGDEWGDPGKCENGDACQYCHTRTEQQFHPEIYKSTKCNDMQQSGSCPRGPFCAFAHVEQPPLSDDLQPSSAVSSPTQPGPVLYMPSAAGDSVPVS
Notes: RNA with constant flanks, vertebrate orthologous sites, ends assumed
| Oligonucleotide | bound/input enrichment [ratio] |
| --- | --- |
| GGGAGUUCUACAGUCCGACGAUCAAGACUUUGUGUGCCAGAUUACCCCAAAAAACAUAAAGCUACUUUUUUUACUUGCAUAUUUUUCAAAGUACCUGAAAAAUGGUUUUUCUCCUUUCUAAUGGUCAAAAGAAGGUACAUUUCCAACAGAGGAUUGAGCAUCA | 0.4 |
| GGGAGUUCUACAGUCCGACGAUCAAAUUUAUUUCAUGCCUUGGACGCCCUAUCGUACUGAUACUUUAAUAGAAUAUGCUUCUUUAGAAGAUUUCCAAAAUAGUCGCCAAACAACGACAUAUAAACUUCCAAAUCGAGUAGAUGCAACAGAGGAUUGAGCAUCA | 1.26 |
| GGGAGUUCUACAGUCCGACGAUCAAAUAUACUUCAUGCCAUGGACUCCAUAUCGCACUGAUACUUUGAUAGAAUAUGCUUCUUUAGAGGACUUCCAAAAUGGACGCCAACAGACAACUUACAAACUUCCAAAUCGAGUGGACGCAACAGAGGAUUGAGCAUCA | 1.54 |
| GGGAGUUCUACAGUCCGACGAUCUAUUUUCUUAUUUUAGGUAUCAUUGCCCAAUGCCCAAGAUCUUUUAUGUUCAGCUGACCGUAGGGAAUAAUGAAUUUUUUGGGGAAGGGAAGACUCGACAAGCUGCUAGACACAAUGCUGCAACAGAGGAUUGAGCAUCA | 1.24 |
| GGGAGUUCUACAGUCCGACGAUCAUAAAGUGCAUAUCAAAUGCUGGAUAUCGUAUUAAACCAUCAUUUAGGGUAGAUGUUAAUUUGUUAUAAUUAAGUUACAAAUAGGUUUCCUUAAACCAGAGAUGCACUGCCCUUGUCUGACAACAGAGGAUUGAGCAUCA | 0.353 |
| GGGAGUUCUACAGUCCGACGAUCGAACCCCAGUUUGUAUGUACAUUCACAUUCCUGUCUGUUUUGUUAGGAAAAAAAGACAUUUUAGCCUUUUUUAAGGUUAUUGAUUUAAUUUUAUGUUACUGGAUUGCAUGAUGUUGCCCUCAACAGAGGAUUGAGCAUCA | 0.275 |
| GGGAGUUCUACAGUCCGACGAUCGUGCAAGGAAAUUAUUCCAACUAGUGAAUUUAUUAACAGUAAGUUAACAGCAAAAGCCAAUAGGCAACUUCAAGAUCCUUUAGUAAUCAUGACAGGAAACAUCCCAACGUGGCUUACUGACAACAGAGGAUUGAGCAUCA | 1.13 |

Study 5 — method: RNA Bind-n-Seq; molecule type: RNA; matrix: in vitro; concentration: 1 µM; notes: whole 134-nt RNA, ends assumed; with: 150 mM KCl; relative to: input library; direction: higher = stronger binding
Target: Ras GTPase-activating protein-binding protein 1, C-terminal RGG region (G3BP1, Homo sapiens, UniProt Q13283)
UniProt Q13283, sequence (whole entry, looked up): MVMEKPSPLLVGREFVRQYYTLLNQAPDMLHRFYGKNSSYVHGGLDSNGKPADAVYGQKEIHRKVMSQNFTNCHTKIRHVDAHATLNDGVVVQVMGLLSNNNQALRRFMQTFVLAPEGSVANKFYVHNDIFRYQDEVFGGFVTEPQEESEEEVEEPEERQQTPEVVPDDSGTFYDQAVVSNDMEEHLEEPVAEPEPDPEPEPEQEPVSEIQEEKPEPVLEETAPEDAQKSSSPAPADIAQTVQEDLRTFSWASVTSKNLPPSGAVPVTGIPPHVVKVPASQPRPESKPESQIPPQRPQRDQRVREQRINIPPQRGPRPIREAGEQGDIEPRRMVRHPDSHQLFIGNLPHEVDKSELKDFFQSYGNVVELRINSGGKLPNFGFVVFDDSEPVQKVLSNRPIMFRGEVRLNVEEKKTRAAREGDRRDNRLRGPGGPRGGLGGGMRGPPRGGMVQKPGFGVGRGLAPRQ
| Oligonucleotide | log2 enrichment |
| --- | --- |
| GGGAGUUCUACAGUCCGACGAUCUCCUGUGCUACACAUCGUAUGUACCGAAUCGGGGAAAAAGGGGUGGGGAAAAAAAGGGGAAAGUAUUAUGUUACGCCGUUCGGAUCUGCAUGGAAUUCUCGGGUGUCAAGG | 1.06 |
| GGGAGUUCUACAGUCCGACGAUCUGGGAGGUGGAUUUUGUUUAUUUUUUUAGCUCAUUUCCGGGGGUGGGAAUUUUUUUUUAAUAUGUGUCAUGAAUAAAGUUGUUUUUGAAAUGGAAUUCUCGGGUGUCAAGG | 2.82 |
| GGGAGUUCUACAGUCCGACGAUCAAGUCCUGUGCUACACAUCGUAUGUACCGAAUCGGGGAGGGGUUUGGGGUUUGGGGAAAGUAUUAUGUUACGCCGUUCGGAUCUGCACUUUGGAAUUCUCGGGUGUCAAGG | 2.33 |
| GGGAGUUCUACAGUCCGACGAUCUCAAGUCCUGUGCUACACAUCGUAUGUACCGAAUCGGUUUGGAGGAAAAAAAGGAAAGUAUUAUGUUACGCCGUUCGGAUCUGCACUUCCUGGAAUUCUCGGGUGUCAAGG | -1.21 |
| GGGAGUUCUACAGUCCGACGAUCUCCUCAAGUCCUGUGCUACACAUCGUAUGUACCGAAUCGGGUGGUGGUGGGGAAAGUAUUAUGUUACGCCGUUCGGAUCUGCACUUCCAGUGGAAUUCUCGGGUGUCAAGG | 0.225 |
| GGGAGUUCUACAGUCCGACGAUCCUGUGCUACACAUCGUAUGUACCGAAUCGGGGCCCCCCCGGCCCCCCCGGGCCCCCCCGGGGAAAGUAUUAUGUUACGCCGUUCGGAUCUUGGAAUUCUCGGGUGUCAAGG | -2.12 |
| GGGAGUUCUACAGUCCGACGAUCAAGUCCUGUGCUACACAUCGUAUGUACCGAAUCGGGGUUUGGGUUUGGGGUUUGGGAAAGUAUUAUGUUACGCCGUUCGGAUCUGCACUUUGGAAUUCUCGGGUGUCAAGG | 1.64 |
| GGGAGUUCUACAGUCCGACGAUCUCCUGUGCUACACAUCGUAUGUACCGAAUCAAACCCCCAAACCCCCAAAUUUUUUUAAAAAAGUAUUAUGUUACGCCGUUCGGAUCUGCAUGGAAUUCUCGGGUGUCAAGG | -0.695 |
| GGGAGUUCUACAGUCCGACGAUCUCCUGUGCUACACAUCGUAUGUACCGAAUCGGGCCCCCCGGCCCCCCGGGCCCCCCGGGGAAAGUAUUAUGUUACGCCGUUCGGAUCUGCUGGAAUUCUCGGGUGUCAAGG | -0.754 |

Some of these lines once more (study 3):
| Oligonucleotide | fitted relative affinity |
| --- | --- |
| GGATCTTGCAGATGTCGCTGGGTGCTA | -0.549 z-score |
| TTGGCTTTCCTTTATGTCCTGTGCTAG | 0.0909 z-score |
| GACGGACTGATTATCCTGACGTGCTAG | -0.563 z-score |
| GACGGTTTCCTTCTGCTGACGTGCTAG | 1.58 z-score |
| TTTGATTTCGGGACTGGATTAGTGCTA | 0.95 z-score |
| TTAGGTTTCCTTCGCCTTTAGTGCTAG | 1.96 z-score |
| TTAGGACGGCTTCTCCTTTAGTGCTAG | -0.258 z-score |
| GACGATCTCGGTTTCGGGACGTGCTAG | 4.39 z-score |
